Measured values pooled from the literature.
Each line is one published result; not all experiments were run side by side. Several values in a cell are separate wells, animals, samples, runs or records. ± gives the spread as reported.
POLB I260M: DNA polymerase beta (POLB, Homo sapiens, UniProt P06746, I260M)
CXCL8: Interleukin-8 (CXCL8, Homo sapiens, UniProt P10145)
Sequence of UniProt P10145 (whole entry, looked up): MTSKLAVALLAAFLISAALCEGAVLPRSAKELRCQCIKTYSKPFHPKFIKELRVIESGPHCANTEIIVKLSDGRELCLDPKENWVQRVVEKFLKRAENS
Eif4e: Eukaryotic translation initiation factor 4E (Eif4e, Mus musculus, UniProt P63073)
Sequence of UniProt P63073 (whole entry, looked up): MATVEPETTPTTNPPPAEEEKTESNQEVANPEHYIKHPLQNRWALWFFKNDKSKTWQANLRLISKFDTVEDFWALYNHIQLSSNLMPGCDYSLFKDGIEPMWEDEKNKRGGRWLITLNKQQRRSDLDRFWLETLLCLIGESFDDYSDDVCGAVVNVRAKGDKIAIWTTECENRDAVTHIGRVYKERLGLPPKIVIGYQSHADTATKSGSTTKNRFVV
LGALS8: Galectin-8 (LGALS8, Homo sapiens, UniProt O00214)
Sequence of UniProt O00214 (whole entry, looked up): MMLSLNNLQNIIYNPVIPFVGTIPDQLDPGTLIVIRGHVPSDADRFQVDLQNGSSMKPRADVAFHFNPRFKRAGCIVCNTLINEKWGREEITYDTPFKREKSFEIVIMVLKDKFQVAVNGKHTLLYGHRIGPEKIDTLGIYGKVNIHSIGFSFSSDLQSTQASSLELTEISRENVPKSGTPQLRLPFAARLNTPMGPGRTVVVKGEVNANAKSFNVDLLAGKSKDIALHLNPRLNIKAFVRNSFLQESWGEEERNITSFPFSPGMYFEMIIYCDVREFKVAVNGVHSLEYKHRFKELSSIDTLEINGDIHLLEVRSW
POLB: DNA polymerase beta (POLB, Homo sapiens, UniProt P06746)
Sequence of UniProt P20248 (whole entry, looked up): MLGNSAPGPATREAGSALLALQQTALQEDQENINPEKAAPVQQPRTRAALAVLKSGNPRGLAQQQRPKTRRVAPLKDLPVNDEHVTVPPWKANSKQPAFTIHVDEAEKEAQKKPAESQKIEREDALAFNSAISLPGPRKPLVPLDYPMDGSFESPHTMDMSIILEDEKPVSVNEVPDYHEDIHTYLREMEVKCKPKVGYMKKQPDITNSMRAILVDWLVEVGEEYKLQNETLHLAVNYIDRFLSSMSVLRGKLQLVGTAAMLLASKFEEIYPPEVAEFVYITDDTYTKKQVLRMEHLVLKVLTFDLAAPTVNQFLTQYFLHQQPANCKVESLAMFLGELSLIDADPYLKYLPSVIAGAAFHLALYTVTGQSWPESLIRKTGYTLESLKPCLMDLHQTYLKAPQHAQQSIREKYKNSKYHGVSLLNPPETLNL
Sequence of UniProt P32138 (whole entry, looked up): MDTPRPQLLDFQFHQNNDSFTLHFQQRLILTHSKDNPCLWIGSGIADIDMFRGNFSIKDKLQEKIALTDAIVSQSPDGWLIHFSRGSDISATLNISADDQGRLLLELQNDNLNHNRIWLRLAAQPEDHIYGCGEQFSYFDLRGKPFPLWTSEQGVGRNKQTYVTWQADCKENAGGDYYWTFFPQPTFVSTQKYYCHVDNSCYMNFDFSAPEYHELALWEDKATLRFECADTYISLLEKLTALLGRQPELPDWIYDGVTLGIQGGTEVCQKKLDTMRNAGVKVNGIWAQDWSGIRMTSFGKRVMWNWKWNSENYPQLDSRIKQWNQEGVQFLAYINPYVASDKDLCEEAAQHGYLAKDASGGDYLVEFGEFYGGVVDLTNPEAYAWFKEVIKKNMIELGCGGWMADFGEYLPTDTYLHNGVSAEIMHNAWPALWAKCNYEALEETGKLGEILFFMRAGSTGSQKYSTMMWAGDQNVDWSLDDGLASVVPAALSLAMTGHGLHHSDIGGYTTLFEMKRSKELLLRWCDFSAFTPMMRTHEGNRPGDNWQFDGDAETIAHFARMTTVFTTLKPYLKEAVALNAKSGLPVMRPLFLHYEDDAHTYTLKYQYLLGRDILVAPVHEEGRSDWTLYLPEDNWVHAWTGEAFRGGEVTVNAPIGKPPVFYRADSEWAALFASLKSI
Sequence of UniProt P28482 (whole entry, looked up): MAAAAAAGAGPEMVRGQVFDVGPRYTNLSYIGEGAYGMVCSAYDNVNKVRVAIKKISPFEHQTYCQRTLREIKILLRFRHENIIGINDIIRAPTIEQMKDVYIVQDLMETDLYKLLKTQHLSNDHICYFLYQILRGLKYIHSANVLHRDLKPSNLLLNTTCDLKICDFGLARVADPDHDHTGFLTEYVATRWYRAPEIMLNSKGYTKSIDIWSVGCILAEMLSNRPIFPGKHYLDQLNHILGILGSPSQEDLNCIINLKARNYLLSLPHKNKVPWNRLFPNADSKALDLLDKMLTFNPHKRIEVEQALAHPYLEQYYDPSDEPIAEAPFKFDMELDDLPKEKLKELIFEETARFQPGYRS
Sequence of UniProt Q96301 (whole entry, looked up): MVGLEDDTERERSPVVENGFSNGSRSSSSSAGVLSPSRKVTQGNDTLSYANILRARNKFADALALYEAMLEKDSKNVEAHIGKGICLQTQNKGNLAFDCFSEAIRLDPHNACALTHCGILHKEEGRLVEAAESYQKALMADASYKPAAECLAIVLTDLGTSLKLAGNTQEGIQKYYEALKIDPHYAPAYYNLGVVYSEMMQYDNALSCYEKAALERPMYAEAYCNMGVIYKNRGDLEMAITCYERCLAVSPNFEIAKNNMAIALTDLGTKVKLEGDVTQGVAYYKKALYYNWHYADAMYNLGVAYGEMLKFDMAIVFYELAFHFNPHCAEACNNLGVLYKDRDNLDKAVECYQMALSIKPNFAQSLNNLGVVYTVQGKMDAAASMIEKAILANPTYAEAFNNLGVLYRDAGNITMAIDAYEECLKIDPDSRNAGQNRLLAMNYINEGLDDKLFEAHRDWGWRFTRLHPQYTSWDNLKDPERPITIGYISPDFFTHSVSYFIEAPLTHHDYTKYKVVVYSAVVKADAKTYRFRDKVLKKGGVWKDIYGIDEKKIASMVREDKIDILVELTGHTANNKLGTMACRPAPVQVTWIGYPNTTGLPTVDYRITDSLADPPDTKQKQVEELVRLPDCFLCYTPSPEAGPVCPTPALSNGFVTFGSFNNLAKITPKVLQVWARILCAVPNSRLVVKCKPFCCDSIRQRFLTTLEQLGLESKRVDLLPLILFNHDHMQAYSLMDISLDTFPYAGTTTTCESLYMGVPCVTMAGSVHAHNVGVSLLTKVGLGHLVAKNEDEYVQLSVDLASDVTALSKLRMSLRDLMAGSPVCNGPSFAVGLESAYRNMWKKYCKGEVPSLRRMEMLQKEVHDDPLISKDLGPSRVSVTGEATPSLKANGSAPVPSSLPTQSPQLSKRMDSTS
Sequence of UniProt Q8NEB9 (whole entry, looked up): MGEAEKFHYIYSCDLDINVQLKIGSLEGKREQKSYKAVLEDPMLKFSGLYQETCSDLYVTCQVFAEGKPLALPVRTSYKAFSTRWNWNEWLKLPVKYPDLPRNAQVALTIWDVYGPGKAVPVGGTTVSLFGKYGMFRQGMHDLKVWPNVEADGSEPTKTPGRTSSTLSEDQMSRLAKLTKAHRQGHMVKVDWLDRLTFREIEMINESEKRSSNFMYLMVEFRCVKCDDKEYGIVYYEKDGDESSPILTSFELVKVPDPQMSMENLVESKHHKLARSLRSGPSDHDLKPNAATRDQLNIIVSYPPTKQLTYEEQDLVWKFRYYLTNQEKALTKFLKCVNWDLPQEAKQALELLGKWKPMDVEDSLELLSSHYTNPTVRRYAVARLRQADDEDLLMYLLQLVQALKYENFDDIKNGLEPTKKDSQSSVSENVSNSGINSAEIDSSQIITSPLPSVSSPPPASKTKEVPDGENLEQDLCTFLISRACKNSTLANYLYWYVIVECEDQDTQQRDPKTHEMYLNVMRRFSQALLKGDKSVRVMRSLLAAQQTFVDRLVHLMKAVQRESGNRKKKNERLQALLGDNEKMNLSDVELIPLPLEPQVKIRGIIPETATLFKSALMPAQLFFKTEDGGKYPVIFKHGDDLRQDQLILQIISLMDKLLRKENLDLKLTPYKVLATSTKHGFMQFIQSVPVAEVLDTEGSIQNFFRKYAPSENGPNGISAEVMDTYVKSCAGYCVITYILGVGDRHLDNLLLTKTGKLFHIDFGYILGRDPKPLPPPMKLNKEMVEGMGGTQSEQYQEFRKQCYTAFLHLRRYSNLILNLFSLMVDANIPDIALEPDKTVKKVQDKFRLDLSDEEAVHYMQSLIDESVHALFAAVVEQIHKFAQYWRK
Sequence of UniProt A0A109QYD3 (whole entry, unmodified, looked up): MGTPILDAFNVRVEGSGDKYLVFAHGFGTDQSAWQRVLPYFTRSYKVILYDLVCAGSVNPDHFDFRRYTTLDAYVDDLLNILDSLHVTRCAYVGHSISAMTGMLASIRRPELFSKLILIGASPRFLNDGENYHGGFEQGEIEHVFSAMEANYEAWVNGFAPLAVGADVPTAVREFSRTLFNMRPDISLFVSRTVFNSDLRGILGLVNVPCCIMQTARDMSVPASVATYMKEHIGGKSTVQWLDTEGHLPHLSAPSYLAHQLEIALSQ

For `CC[C@H](C)[C@@H]1NC(=O)[C@H](C)NC(=O)[C@H](C)NC(=O)[C@H]([C@@H](C)O)NC(=O)[C@H](Cc2ccccc2)NC(=O)[C@@H]2CSSC[C@@H]3NC(=O)[C@H](C(C)C)NC(=O)[C@H](CCCCN)NC(=O)[C@H](CO)NC(=O)[C@H](CCCCN)NC(=O)[C@@H]4CSSC[C@H](NC(=O)[C@H](CO)NC(=O)[C@H](CCC(=O)O)NC(=O)CNC(=O)[C@H](CSSC[C@H](NC(=O)CNC1=O)C(=O)N[C@@H](CO)C(=O)N4)NC(=O)[C@@H]1CCCN1C(=O)[C@H](Cc1ccccc1)NC(=O)[C@H](C)NC(=O)[C@H](CC(N)=O)NC(=O)[C@H](CCCCN)NC(=O)[C@H](Cc1ccc(O)cc1)NC3=O)C(=O)N[C@@H](C(C)C)C(=O)N[C@@H](Cc1ccc(O)cc1)C(=O)N[C@@H](CC(C)C)C(=O)N1CCC[C@H]1C(=O)N2`, the Kd was 5.54 ± 0.19 µM (POPC/POPE lipid membrane; membrane binding, surface plasmon resonance; POPC/POPE 80:20 vesicles; pH 7.4).
`Nc1nc2c(ncn2C2CC(O)C(COP(=O)(O)OP(=O)(O)C(F)P(=O)(O)O)O2)c(=O)[nH]1` (mixture of isomers) gave a Kd of 1100 ± 328 µM (POLB I260M; nucleotide binding, substrate, single turnover kinetics; 37 °C, dG misincorporation opposite A).
`CSCC[C@H](NC(=O)[C@H](CO)NC(=O)[C@H](CCCNC(=N)N)NC(=O)[C@H](CCCCN)NC(=O)[C@H](CO)NC(=O)[C@H](CCCCN)NC(=O)[C@H](CCCCN)NC(=O)CNC(=O)[C@H](CCCCN)NC(=O)[C@H](CCCCN)NC(=O)[C@H](CC(C)C)NC(=O)[C@H](CCCNC(=N)N)NC(=O)[C@H](CCCNC(=N)N)NC(=O)[C@H](C)N)C(=O)N[C@@H](CC(N)=O)C(=O)N[C@@H](CC(=O)O)C(=O)N1CCC[C@H]1C(=O)N[C@@H](Cc1ccc(O)cc1)C(=O)O` has a Kd of 0.196 ± 0.015 µM (Moesin, FERM domain (Homo sapiens, UniProt P26038); binding, Trp fluorescence titration; pH 7.4, room temperature, FERM domain).
With `CC(=O)N[C@@H]1[C@@H](O[C@@H]2O[C@H](C(=O)O)[C@@H](OS(=O)(=O)O)[C@H](OS(=O)(=O)O)[C@H]2OS(=O)(=O)O)[C@H](OS(=O)(=O)O)[C@@H](COS(=O)(=O)O)O[C@H]1N=[N+]=[N-]` the Kd was 117 µM (CXCL8; ligand displacement, FP).
`C[n+]1cn([C@@H]2O[C@H](COP(=O)(O)OP(=O)([O-])OP(=O)(O)OC[C@H]3O[C@@H](n4cnc5c(=O)[nH]c(N)nc54)[C@H](O)[C@@H]3OC(=O)NCCCCCCN)[C@@H](O)[C@H]2O)c2nc(N)nc(O)c21` gave a Kd of 0.485 ± 0.092 µM (Eif4e; cap analogue binding, pyrene fluorescence competition; 20 °C).
With `CC[C@H](C)[C@H](NC(=O)[C@H](CC(C)C)NC(=O)[C@H](CCCNC(=N)N)NC(=O)c1ccc(CN2CCN(C)CC2)cc1)C(=O)N[C@@H](Cc1ccccc1)C(N)=O` the Kd was > 6.5 µM and 6.77 µM (Cyclin-A2 (CCNA2, Homo sapiens, UniProt P20248); binding, tryptophan fluorescence titration; co-expressed with GroES-GroEL-Tig).
With `C[n+]1cc(NC(=O)c2ccc3ccc4ccc(C(=O)Nc5cc6ccccc6[n+](C)c5)nc4c3n2)cc2ccccc21` the Kd was 0.57 µM (MYC snap-back G4 DNA; binding, native ESI-MS; 100 mM trimethylammonium acetate; 1 mM KCl).
`C[C@H](N)C(=O)N[C@@H](CCCNC(=N)N)C(=O)N[C@H](C(=O)N[C@@H](CCCC[N+](C)(C)C)C(=O)N[C@@H](CCC(N)=O)C(=O)N[C@H](C(=O)N[C@@H](C)C(=O)N[C@@H](CCCNC(=N)N)C(=O)N[C@@H](CCCCN)C(=O)N[C@@H](CO)C(=O)N[C@H](C(=O)NCC(=O)NCC(=O)N[C@@H](CCCCN)C(=O)N[C@@H](C)C(=O)O)[C@@H](C)O)[C@@H](C)O)[C@@H](C)O` has a Kd of 35.6 µM (DNMT3A (Homo sapiens, UniProt Q9Y6K1); binding, ITC).
With `CN(C)CCCSC(=S)N1CCN(C(=O)/C=C/c2coc3ccccc3c2=O)CC1` the Kd was 150 µM (RNA; binding, biolayer interferometry).
For `Nc1nc2c(ncn2[C@H]2C[C@H](O)[C@@H](COP(=O)(O)OP(=O)(O)C(F)(F)P(=O)(O)O)O2)c(=O)[nH]1`, the Kd was 1290 ± 397 µM (POLB I260M; nucleotide binding, substrate, single turnover kinetics; 37 °C, dG misincorporation opposite A).
`OC[C@H]1Oc2c(Cc3ccccc3)c(Cc3ccccc3)cc3c2[C@@H](OC3)[C@H]1O` gave a Kd of 1500 µM (LGALS8; cell-free assay, FP).
`CC[C@H](C)[C@@H]1NC(=O)[C@H](C)NC(=O)[C@H](C)NC(=O)[C@H]([C@@H](C)O)NC(=O)[C@H](Cc2ccccc2)NC(=O)[C@@H]2CSSC[C@@H]3NC(=O)[C@H](C(C)C)NC(=O)[C@H](CCCCN)NC(=O)[C@H](CO)NC(=O)[C@H](CCCCN)NC(=O)[C@@H]4CSSC[C@H](NC(=O)[C@H](CO)NC(=O)[C@H](CCC(=O)O)NC(=O)CNC(=O)[C@H](CSSC[C@H](NC(=O)CNC1=O)C(=O)N[C@@H](CO)C(=O)N4)NC(=O)[C@@H]1CCCN1C(=O)[C@H](Cc1ccccc1)NC(=O)CNC(=O)[C@H](CC(N)=O)NC(=O)[C@H](C)NC(=O)[C@H](Cc1ccc(O)cc1)NC3=O)C(=O)N[C@@H](C(C)C)C(=O)N[C@@H](Cc1ccc(O)cc1)C(=O)N[C@@H](CC(C)C)C(=O)N1CCC[C@H]1C(=O)N2` has a Kd of 5.29 ± 0.32 µM (POPC/POPE lipid membrane; membrane binding, surface plasmon resonance; POPC/POPE 80:20 vesicles; pH 7.4).
For `C[n+]1cn(C2OC(COP(=O)(O)OP(=O)([O-])C(Cl)(Cl)P(=O)(O)OP(=O)(O)OCC3OC(n4cnc5c(=O)[nH]c(N)nc54)C(O)C3O)C(O)C2O)c2nc(N)nc(O)c21` (stereo not drawn), the Kd was 0.0128 ± 0.00028 µM (Eukaryotic translation initiation factor 4E, residues 28-217 (Eif4e, Mus musculus, UniProt P63073); binding, fluorescence quenching titration; pH 7.2, 20 °C).
For `Nc1nc2c(ncn2[C@H]2C[C@H](O)[C@@H](COP(=O)(O)OP(=O)(O)[C@@H](Cl)P(=O)(O)O)O2)c(=O)[nH]1`, the Kd was 540 ± 30 µM (POLB; substrate, quench-flow kinetics; pH 8.0, 37 °C, misincorporation opposite T in gapped DNA).
`NS(=O)(=O)c1c(F)c(F)c(S(=O)(=O)CCc2ccccc2)c(NCc2ccccc2)c1F` gave a Kd of 0.033 µM (CA2 (Homo sapiens, UniProt P00918, A65S/F130A/I91T/L203N/N67K/V134S); pH 7).
`Cc1cn(C2CC(O)C(COP(=O)(O)OP(=O)(O)C(Br)P(=O)(O)O)O2)c(=O)[nH]c1=O` (mixture of isomers) gave a Kd of 9.8 ± 2.1 µM (POLB; dNTP binding, substrate, single-turnover kinetics; single-nucleotide gapped DNA; 37 °C, wild type, correct incorporation, added: dTTP opposite template A).
For `CC(=O)N[C@@H]1[C@@H](O[C@@H]2O[C@H](C(=O)O)[C@@H](O[C@@H]3O[C@H](COS(=O)(=O)O)[C@@H](OS(=O)(=O)O)[C@H](O[C@@H]4O[C@H](C(=O)O)[C@@H](OS(=O)(=O)O)[C@H](OS(=O)(=O)O)[C@H]4OS(=O)(=O)O)[C@H]3NC(C)=O)[C@H](OS(=O)(=O)O)[C@H]2OS(=O)(=O)O)[C@H](OS(=O)(=O)O)[C@@H](COS(=O)(=O)O)O[C@H]1N=[N+]=[N-]`, the Kd was 5 µM (CXCL8; ligand displacement, FP).
For `Cc1cc(NCCOC(C)C)c2nc(N3CCOC[C@H]3C)cc(=O)n2c1`, the Kd was 0.0219 µM (PIK3C3 (Homo sapiens, UniProt Q8NEB9); binding, SPR).
For `COc1ccc(Cc2cc3c4c(c2)O[C@H](CO)[C@H](O)[C@@H]4OC3)cc1`, the Kd was 640 µM (LGALS8; cell-free assay, FP).
With `COc1cccc(OC)c1OCCCn1cc(CCCNc2nc3c(c(=O)[nH]2)[n+](C)cn3C2OC(COP(=O)(O)OP(=O)([O-])OP(=O)(O)OCC3OC(n4cnc5c(=O)[nH]c(N)nc54)C(O)C3O)C(O)C2O)nn1` (stereo not drawn) the Kd was 8.46 µM (Eif4e; differential scanning fluorimetry).
`Nc1nc2c(ncn2C2CC(O)C(COP(=O)(O)OP(=O)(O)C(Br)P(=O)(O)O)O2)c(=O)[nH]1` (mixture of isomers) has a Kd of 454 ± 179 µM (POLB I260M; nucleotide binding, substrate, single turnover kinetics; 37 °C, dG misincorporation opposite A).
`CC1=C[C@H](O/C=C2/C(=O)O[C@@H]3c4ccccc4C[C@H]23)OC1=O` (racemic) has a Kd of 154 µM (RMS3 (Lathyrus oleraceus, UniProt A0A109QYD3, S96C); binding, fluorescence).
For `CCOc1ccc(-c2nc3cc(-c4nc5cc(N6CCN(C)CC6)ccc5[nH]4)ccc3[nH]2)cc1`, the Kd was 171 ± 17.9 µM (HIV-1 SL4 RNA stem-loop; binding, ESI-FTMS titration; pH 7.5).
For `COC1CCC(N(C(=O)C2CCC(C)CC2)c2cc(C3=CCCCC3)sc2C(=O)O)CC1` (stereo not drawn), the Kd was 37 µM (Probable UDP-N-acetylglucosamine--peptide N-acetylglucosaminyltransferase SPINDLY (SPY, Arabidopsis thaliana, UniProt Q96301); binding, biolayer interferometry).
`Cc1cn(C2CC(O)C(COP(=O)(O)OP(=O)(O)C(F)(Cl)P(=O)(O)O)O2)c(=O)[nH]c1=O` (mixture of isomers) gave a Kd of 27.5 ± 6.1 µM (POLB; dNTP binding, substrate, single-turnover kinetics; single-nucleotide gapped DNA; 37 °C, wild type, correct incorporation, added: dTTP opposite template A).
For `O=C(NCCC#Cc1cc(Nc2nccc(-c3ccn([C@H](CO)c4ccc(Cl)c(F)c4)c(=O)c3)n2)ccn1)OC1CC/C=C/CCC1` (stereo partly drawn), the Kd was 0.046 µM (MAPK1 (Homo sapiens, UniProt P28482); binding, SPR).
The Kd of `O=S(=O)(O)C[C@H]1CNC[C@@H](O)[C@@H]1O` is reported as 0.96 ± 0.12 µM (Sulfoquinovosidase (yihQ, Escherichia coli, UniProt P32138)).
For `C[C@]12CCC(=O)C=C1CCC1C2C(=O)C[C@@]2(C)C1CC[C@]2(O)C(=O)CO` (stereo partly drawn), the Kd was 0.064 ± 0.004 µM (mouse anti-cortisol Fab 17; native MS titration; 200 mM ammonium acetate; 1.5% DMSO, 0.5% methanol, added: Fab 100 nM).
`CC[C@H](C)[C@@H]1NC(=O)[C@H](C)NC(=O)[C@H](C)NC(=O)[C@H]([C@@H](C)O)NC(=O)[C@H](Cc2ccccc2)NC(=O)[C@@H]2CSSC[C@@H]3NC(=O)[C@H](C(C)C)NC(=O)[C@H](CCCCN)NC(=O)[C@H](CO)NC(=O)[C@H](CCCCN)NC(=O)[C@@H]4CSSC[C@H](NC(=O)[C@H](CO)NC(=O)[C@H](CCC(=O)O)NC(=O)CNC(=O)[C@H](CSSC[C@H](NC(=O)CNC1=O)C(=O)N[C@@H](CO)C(=O)N4)NC(=O)[C@@H]1CCCN1C(=O)[C@H](Cc1ccccc1)NC(=O)CNC(=O)[C@H](CC(N)=O)NC(=O)[C@H](CCCCN)NC(=O)[C@H](Cc1ccc(O)cc1)NC3=O)C(=O)N[C@@H](C(C)C)C(=O)N[C@@H](Cc1ccc(O)cc1)C(=O)N[C@@H]([C@@H](C)CC)C(=O)N1CCC[C@H]1C(=O)N2` has a Kd of 5.88 ± 0.07 µM (POPC/POPE lipid membrane; membrane binding, surface plasmon resonance; POPC/POPE 80:20 vesicles; pH 7.4).
`CC(=O)c1cc(O)c(=O)c(O)cc1C` gave a Kd of 200 µM (Mg2+; binding, absorption spectroscopy; high-affinity site).

Excerpt of the above:
For `COc1ccc(Cc2cc3c4c(c2)O[C@H](CO)[C@H](O)[C@@H]4OC3)cc1`, the Kd was 640 µM (LGALS8; cell-free assay, FP).
With `COc1cccc(OC)c1OCCCn1cc(CCCNc2nc3c(c(=O)[nH]2)[n+](C)cn3C2OC(COP(=O)(O)OP(=O)([O-])OP(=O)(O)OCC3OC(n4cnc5c(=O)[nH]c(N)nc54)C(O)C3O)C(O)C2O)nn1` (stereo not drawn) the Kd was 8.46 µM (Eif4e; differential scanning fluorimetry).
